Published values collected from several papers.
Each line is one published result; not all experiments were run side by side. Values joined by “and” are separate records of one study, mostly repeats; a detail may differ. ± gives the spread as reported.
ASIC1: Acid-sensing ion channel 1 (ASIC1, Homo sapiens, UniProt P78348)
Sequence of UniProt P78348 (whole entry, looked up): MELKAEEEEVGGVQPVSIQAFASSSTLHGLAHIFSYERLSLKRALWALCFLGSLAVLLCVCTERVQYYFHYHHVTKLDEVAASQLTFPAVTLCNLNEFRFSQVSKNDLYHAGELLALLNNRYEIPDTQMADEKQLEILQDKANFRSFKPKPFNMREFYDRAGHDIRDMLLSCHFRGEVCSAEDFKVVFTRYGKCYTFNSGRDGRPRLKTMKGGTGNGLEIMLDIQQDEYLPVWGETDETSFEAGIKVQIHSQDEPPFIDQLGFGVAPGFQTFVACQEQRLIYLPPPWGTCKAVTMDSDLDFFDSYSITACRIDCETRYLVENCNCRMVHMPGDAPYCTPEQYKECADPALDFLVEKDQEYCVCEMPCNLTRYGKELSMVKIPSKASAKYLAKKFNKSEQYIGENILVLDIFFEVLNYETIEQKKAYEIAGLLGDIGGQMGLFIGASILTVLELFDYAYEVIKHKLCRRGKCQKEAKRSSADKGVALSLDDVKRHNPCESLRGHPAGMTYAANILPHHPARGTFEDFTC
Spike glycoprotein: Spike glycoprotein (Severe acute respiratory syndrome coronavirus 2, UniProt P0DTC2)
embR: Transcriptional regulatory protein EmbR (embR, Mycobacterium tuberculosis, UniProt P9WGJ9)
Sequence of UniProt P9WGJ9 (whole entry, looked up): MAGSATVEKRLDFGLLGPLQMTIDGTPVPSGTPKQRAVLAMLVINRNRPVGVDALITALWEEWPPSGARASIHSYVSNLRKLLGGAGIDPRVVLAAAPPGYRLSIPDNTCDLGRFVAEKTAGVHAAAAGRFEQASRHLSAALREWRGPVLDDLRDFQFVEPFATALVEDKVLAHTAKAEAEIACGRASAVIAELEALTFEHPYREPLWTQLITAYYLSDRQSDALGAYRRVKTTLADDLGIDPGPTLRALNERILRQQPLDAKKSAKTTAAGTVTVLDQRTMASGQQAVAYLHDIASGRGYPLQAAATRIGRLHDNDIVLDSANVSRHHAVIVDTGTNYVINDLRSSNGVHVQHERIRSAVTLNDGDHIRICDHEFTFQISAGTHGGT
Sequence of UniProt O82882 (whole entry, looked up): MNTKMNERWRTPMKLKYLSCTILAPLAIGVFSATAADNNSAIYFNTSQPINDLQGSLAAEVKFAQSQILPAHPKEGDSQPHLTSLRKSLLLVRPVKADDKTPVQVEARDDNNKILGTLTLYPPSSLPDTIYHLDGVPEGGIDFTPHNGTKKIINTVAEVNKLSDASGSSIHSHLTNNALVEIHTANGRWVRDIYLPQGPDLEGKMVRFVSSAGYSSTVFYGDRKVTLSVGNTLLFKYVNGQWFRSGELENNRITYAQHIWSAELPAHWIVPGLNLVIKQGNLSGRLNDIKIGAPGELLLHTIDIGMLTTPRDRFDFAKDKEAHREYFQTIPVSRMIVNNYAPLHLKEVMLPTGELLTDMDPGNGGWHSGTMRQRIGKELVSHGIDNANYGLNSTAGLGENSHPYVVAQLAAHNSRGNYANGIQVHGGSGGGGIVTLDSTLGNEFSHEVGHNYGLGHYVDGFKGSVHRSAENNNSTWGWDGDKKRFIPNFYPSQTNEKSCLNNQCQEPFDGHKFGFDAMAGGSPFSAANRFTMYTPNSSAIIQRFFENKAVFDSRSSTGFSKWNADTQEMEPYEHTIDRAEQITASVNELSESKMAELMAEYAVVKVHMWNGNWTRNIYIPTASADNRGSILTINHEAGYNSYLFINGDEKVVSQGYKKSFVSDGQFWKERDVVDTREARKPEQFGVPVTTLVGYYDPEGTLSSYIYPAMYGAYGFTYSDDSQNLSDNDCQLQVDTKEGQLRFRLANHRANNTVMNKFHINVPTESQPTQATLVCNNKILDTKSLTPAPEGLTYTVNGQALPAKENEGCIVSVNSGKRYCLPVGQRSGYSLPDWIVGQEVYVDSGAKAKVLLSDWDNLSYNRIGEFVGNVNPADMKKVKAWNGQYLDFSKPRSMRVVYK

CC[C@H](C)[C@H](NC(=O)[C@@H]1CCCN1C(=O)[C@H](C)NC(=O)[C@@H]1CSSC[C@@H]2NC(=O)[C@H](CC(=O)O)NC(=O)[C@H](CCCNC(=N)N)NC(=O)[C@H](CCC(=O)O)NC(=O)[C@H](CCCNC(=N)N)NC(=O)CNC(=O)[C@H](CC(=O)O)NC(=O)[C@@H]3CSSC[C@H](NC(=O)[C@H](CCC(=O)O)NC(=O)[C@H](CC(C)C)NC(=O)CNC(=O)[C@H](C)NC(=O)[C@H](CSSC[C@H](NC(=O)[C@H](Cc4ccccc4)NC(=O)[C@@H](N)CO)C(=O)N[C@@H](CC(C)C)C(=O)N[C@@H](C(C)C)C(=O)N[C@@H](CCCCN)C(=O)N[C@@H](Cc4c[nH]c5ccccc45)C(=O)N[C@@H](CCCCN)C(=O)N[C@@H](CCC(N)=O)C(=O)N3)NC2=O)C(=O)N[C@@H](Cc2c[nH]c3ccccc23)C(=O)N[C@@H](CCCCN)C(=O)N[C@@H](CCCNC(=N)N)C(=O)N[C@@H](CO)C(=O)NCC(=O)N[C@@H](CO)C(=O)N[C@@H](CCCCN)C(=O)N[C@@H](CO)C(=O)N[C@@H](CO)C(=O)N[C@@H](C(C)C)C(=O)N1)C(=O)N[C@H](C(=O)O)[C@@H](C)O  kon (ASIC1; binding, SPR; pH 7.5): 1.53e+07 M⁻¹ s⁻¹
CNC(=O)[C@@H](NC(=O)[C@H](CC(C)C)[C@H](O)C(=O)NO)C(C)(C)C  remaining activity (Daboia russelii venom proteases (SVMP); protease activity, inhibitor; AP population; 0.001 µM, with: azocasein substrate; baseline: venom alone): 98.4% and 99.6% and 97.7%
COC(=O)[C@]1(C)CC[C@]2(C(=O)O[C@@H]3O[C@H](CO)[C@@H](O)[C@H](O)[C@H]3O)CC[C@]3(C)C(=CC[C@@H]4[C@@]5(C)C[C@H](O)[C@H](O[C@@H]6OC[C@@H](O[C@@H]7O[C@H](CO)[C@@H](O)[C@H](O)[C@H]7O)[C@H](O)[C@H]6O)[C@@](C)(CO)C5CC[C@]43C)[C@H]2C1 (stereo partly shown)  kon (Spike glycoprotein; binding, biolayer interferometry): 41200 M⁻¹ s⁻¹
CC(C)C[C@H](NC(=O)[C@@H](N)CO)C(=O)N[C@@H](CCC(=O)O)C(=O)N[C@H](C(=O)N[C@H](C(=O)N[C@@H](CCC(=O)O)C(=O)N[C@@H](C)C(=O)N[C@@H](CC(=O)O)C(=O)O)[C@@H](C)O)C(C)C  kon (embR; binding): 270 ± 240 M⁻¹ s⁻¹
Nc1ncnc2c([C@@H]3N[C@H](CO)[C@@H](O)[C@H]3O)c[nH]c12  inhibition (Marburg virus; viral RNA in cell lysate; HeLa, Musoke; 25 µM, 12 h): 84.9%
CC[C@H](C)[C@H](NC(=O)[C@@H]1CCCN1C(=O)[C@H](C)NC(=O)[C@@H]1CSSC[C@@H]2NC(=O)[C@H](CC(=O)O)NC(=O)[C@H](CCCNC(=N)N)NC(=O)[C@H](CCC(=O)O)NC(=O)[C@H](CCCNC(=N)N)NC(=O)CNC(=O)[C@H](CC(=O)O)NC(=O)[C@@H]3CSSC[C@H](NC(=O)[C@H](CCC(=O)O)NC(=O)[C@H](CC(C)C)NC(=O)CNC(=O)[C@H](C)NC(=O)[C@H](CSSC[C@H](NC(=O)[C@H](Cc4ccccc4)NC(=O)[C@@H](N)CO)C(=O)N[C@@H](CC(C)C)C(=O)N[C@@H](C(C)C)C(=O)N[C@@H](CCCCN)C(=O)N[C@@H](Cc4c[nH]c5ccccc45)C(=O)N[C@@H](CCCCN)C(=O)N[C@@H](CCC(N)=O)C(=O)N3)NC2=O)C(=O)N[C@@H](Cc2c[nH]c3ccccc23)C(=O)N[C@@H](CCCCN)C(=O)N[C@@H](CCCNC(=N)N)C(=O)N[C@@H](CO)C(=O)NCC(=O)N[C@@H](CC(N)=O)C(=O)N[C@@H](CCCCN)C(=O)N[C@@H](CO)C(=O)N[C@@H](CO)C(=O)N[C@@H](C(C)C)C(=O)N1)C(=O)N[C@H](C(=O)O)[C@@H](C)O  kon (ASIC1; binding, SPR; pH 7.5): 2.1e+07 M⁻¹ s⁻¹
CC(=O)N[C@H]1[C@@H](OC[C@H](NC(=O)[C@H](C)NC(=O)[C@H](C)N)C(=O)N[C@H](C(=O)N[C@H](C(=O)N[C@H](C(=O)N2CCC[C@H]2C(=O)N[C@@H](C)C(=O)N2CCC[C@H]2C(=O)N[C@@H](C)C(N)=O)[C@@H](C)O[C@H]2O[C@H](CO)[C@H](O)[C@H](O)[C@H]2NC(C)=O)[C@@H](C)O[C@H]2O[C@H](CO)[C@H](O)[C@H](O)[C@H]2NC(C)=O)[C@@H](C)O[C@H]2O[C@H](CO)[C@H](O)[C@H](O)[C@H]2NC(C)=O)O[C@H](CO)[C@H](O)[C@@H]1O  kon (Metalloprotease StcE (stcE, Escherichia coli O157:H7, UniProt O82882); binding; Escherichia coli, EHEC; pH 7.5): 498000 M⁻¹ s⁻¹
Cn1cnc(Cn2c(=O)[nH]/c(=N\c3cc4cn(C)nc4cc3Cl)n(Cc3cc(F)c(F)cc3F)c2=O)n1  patients with adverse event (human, all renal function groups; oral, 375 mg, decreased GFR TEAE, Mild severity): 0%
CC(C)OC(=O)[C@H](C)N[P@](=O)(OC[C@H]1O[C@@H](n2ccc(=O)[nH]c2=O)[C@](C)(F)[C@@H]1O)Oc1ccccc1  kon (Genome polyprotein, NS5 RdRp domain (Yellow fever virus, UniProt P03314)): 76.7 M⁻¹ s⁻¹
NC[C@H]1O[C@H](O[C@H]2[C@H](O)[C@@H](O[C@H]3O[C@H](CO)[C@@H](O)[C@H](N)[C@H]3O)[C@H](N)C[C@@H]2N)[C@H](N)C[C@@H]1O  kon (Spike glycoprotein; binding, BLI): 77.4 M⁻¹ s⁻¹
CC(C)C[C@H](NC(=O)[C@H](C)NC(=O)[C@H](CCC(=O)O)NC(=O)[C@@H](N)Cc1c[nH]cn1)C(=O)N[C@@H](CO)C(=O)N[C@@H](CC(=O)O)C(=O)N1CCC[C@H]1C(=O)N[C@@H](CC(=O)O)C(=O)O  kon (embR; binding): 250 ± 440 M⁻¹ s⁻¹
CC(C)(O)[C@H]1CC[C@@](C)([C@H]2[C@@H](O)C[C@@]3(C)[C@@H]4C[C@H](O[C@@H]5O[C@H](CO)[C@@H](O)[C@H](O)[C@H]5O)[C@H]5C(C)(C)[C@@H](O[C@@H]6OC[C@@H](O)[C@H](O)[C@H]6O)CC[C@@]56C[C@@]46CC[C@]23C)O1  kon (Spike glycoprotein; binding, biolayer interferometry): 3460 M⁻¹ s⁻¹
CC[C@H](C)[C@H](NC(=O)[C@H](CC(C)C)NC(=O)[C@H](Cc1c[nH]c2ccccc12)NC(=O)[C@H](CCC(N)=O)NC(=O)[C@@H](NC(=O)[C@H](Cc1ccccc1)NC(=O)[C@H](C)NC(=O)[C@H](CCCCNC(=O)COCCOCCNC(=O)COCCOCCNC(=O)CC[C@H](NC(=O)CCCCCCCCCCCCCCCCCCC(=O)O)C(=O)O)NC(=O)[C@H](CCC(N)=O)NC(=O)[C@H](C)NC(=O)[C@@H](NC(=O)[C@H](CCCCN)NC(=O)[C@H](CC(=O)O)NC(=O)[C@H](CC(C)C)NC(=O)C(C)(C)NC(=O)[C@@H](NC(=O)[C@H](CO)NC(=O)[C@H](Cc1ccc(O)cc1)NC(=O)[C@H](CC(=O)O)NC(=O)[C@H](CO)NC(=O)[C@@H](NC(=O)[C@H](Cc1ccccc1)NC(=O)[C@@H](NC(=O)CNC(=O)[C@H](CCC(=O)O)NC(=O)C(C)(C)NC(=O)[C@@H](N)Cc1ccc(O)cc1)[C@@H](C)O)[C@@H](C)O)[C@@H](C)CC)[C@@H](C)CC)C(C)C)C(=O)N[C@@H](C)C(=O)NCC(=O)NCC(=O)N1CCC[C@H]1C(=O)N[C@@H](CO)C(=O)N[C@@H](CO)C(=O)NCC(=O)N[C@@H](C)C(=O)N1CCC[C@H]1C(=O)N1CCC[C@H]1C(=O)N1CCC[C@H]1C(=O)N[C@@H](CO)C(N)=O  subjects with adverse event (item: treatment-emergent feeling hot; healthy subjects; 1.5 mg, multiple ascending dose): 0%

Repeated from above:
CNC(=O)[C@@H](NC(=O)[C@H](CC(C)C)[C@H](O)C(=O)NO)C(C)(C)C  remaining activity (Daboia russelii venom proteases (SVMP); protease activity, inhibitor; AP population; 0.001 µM, with: azocasein substrate; baseline: venom alone): 98.4% and 99.6% and 97.7%
